Measured values from different studies.
Parts stem from different laboratories: compare values within a part only.

Set 1 — technique: protein binding microarray; form: double-stranded DNA, one strand shown; sample: in vitro; concentration: not given; relative to: not given; direction: higher = stronger binding
Target: Histone acetyltransferase KAT6A, winged helix 2, GST fusion (KAT6A, Homo sapiens, UniProt Q92794, residues 85-181)
Setting: 8-mer, flanks averaged, mean of 2 arrays, mostly near background
Target sequence (chain): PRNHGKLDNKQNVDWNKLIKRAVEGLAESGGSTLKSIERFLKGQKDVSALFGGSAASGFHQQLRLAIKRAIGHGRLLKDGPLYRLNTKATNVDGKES
Oligonucleotide	E-score
AGATACTG	0.0237
CATCCCAG	-0.0171
TTTCCAAA	-0.0601
CAAGCGCC	0.068
AAAGCTTC	-0.115
AGCCTGTA	-0.0665
CTAACCGC	0.0374
GTCTGCTA	0.115
ATCGCGTA	-0.108
CGCGCCTC	0.0735
CTGAATCC	0.0493
CCTCATAG	-0.08
ACGTACAT	-0.0959
AGTGTTCG	-0.0375
TAGTTGCA	0.0322
AGAATACG	-0.0618

Set 2 — technique: RNA Bind-n-Seq; form: RNA; sample: in vitro; concentration: 365 nM; relative to: no-protein control; direction: higher = stronger binding
Target: RNA binding protein fox-1 homolog 2, RRM domain, GST-SBP tag (RBFOX2, Homo sapiens, UniProt O43251-10, residues 100-194)
Setting: natural RNA segment, single round, ends assumed
Residues (chain): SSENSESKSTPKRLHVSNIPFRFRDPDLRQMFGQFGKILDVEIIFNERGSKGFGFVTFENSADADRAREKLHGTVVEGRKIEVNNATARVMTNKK
Oligonucleotide	RBNS enrichment (R)
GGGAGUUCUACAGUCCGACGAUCGUUUUAGCAUUGUCUUGUUCUGUCCCUUCCACUUCUAACUCCACUGGCUCCAUGAUUCUCUGAGUGGUGGUUCCUUUGCACCCUGUAGAUGUUCUAGGAUAGUUGAUGCAUGGAAUUCUCGGGUGCCAA	14.9
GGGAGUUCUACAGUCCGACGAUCUCAAGUCAACUUGUGUGAUAAGUUCUACUGCACCUAUCUUGGGAAGCAGGGAUACCCUCUUCUUUAGGACUAGAGCUGCCAUUCUUUUCAUCUUUAGCACAAGGAAGGUAUGGAAUUCUCGGGUGCCAA	0.284
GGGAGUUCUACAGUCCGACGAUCUUAGGAGGACAAAAUGGGGUCAAGAGGACACAGAAGAGUUGUAUAGCACCAGAUUGGUUCCAAAUAGUUAAUGGAUGUGUGCACAUUUUCUGUUCAGGGAUUAAGACCAGUGGAAUUCUCGGGUGCCAA	2.69
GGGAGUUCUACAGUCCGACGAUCAAGAAUUGCACGUAUGAGAAACCUAUAUUUCAAUACUGCUGAAACAGACAUGAAAUAAAGAAUUUAAAGAAUGAUUUUGUUUGGUUUUAUUUUUCCCAACAUUUUAUUUUUGGAAUUCUCGGGUGCCAA	4.68
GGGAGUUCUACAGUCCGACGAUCGUGAUAGCGUGAAGAGCUUUUCUCAUUAGAAACCAAAUGGUGUAAAUAUUUUAUUUGAUAAAGAUAGUUGAUGGUUUAUUUUAAAAGAUGCACUUUGAGUUGCAAUAUGUUGGAAUUCUCGGGUGCCAA	3.35
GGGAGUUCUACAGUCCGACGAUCAAAUUUUGGUUGGAUAUAUAGAGAAUUUUAUAAAUGUAUUGCCUUAGAAUUUCUGGGUGGAGACCCAACUACAAUGACAUUGUCAUGCCAGAACUAUAAAGAUAAUUAGAUGGAAUUCUCGGGUGCCAA	4.28
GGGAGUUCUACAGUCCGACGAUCCCAAUGAUGCUGUCAGAUAUAUCUGCUUUCUCAAGUUUAAAAGAAUUCAAAUUAACUUCCUUUGAGUCUUUGUUAAAAGAGAAAAUAAAAAAAUCUCAAGCAAACUUGGAUGGAAUUCUCGGGUGCCAA	0.642
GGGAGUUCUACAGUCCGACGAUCAAAUGUUUAAAGAAAUCAAAAGAAUCUAUUAGAUUUUAGAAAAACAUUUAAACUUUUUAAAAUACUUAUUAAAAAAUUUGUAUAAGCCACUUGUCUUGAAAACUGUGCAAUGGAAUUCUCGGGUGCCAA	0.904
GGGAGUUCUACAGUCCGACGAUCUCUUCAGGGCACUGCUGCUGCCUUUAGUCGCUGAGGAAAAAUAAAGACAAAUGCUGCGCCCUUCCCCGAGUGGACUCUGAUCUGUUCAUGAGAGGGCGGGACUGGGGCCAUGGAAUUCUCGGGUGCCAA	0.375
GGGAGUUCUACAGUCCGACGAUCUUUUGCUGACUUCUUUAACCAUUUAUAUUGUUUAAAUUAGUAAUAUCCAAUGCAGUGCACACUUUUUUGUCUUUUUUCCAACGGAAUAUUUUGGUUGUCUGUAGCGUUGGUGGAAUUCUCGGGUGCCAA	0.73
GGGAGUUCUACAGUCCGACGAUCUUCCUUUUUCCUUCUAUGUCCCCUCUCUGCGGGGGGGGCGCUGAGGCUGAGGGGGAGCUGCGUCUUGCUAGGGCUUCCCCCUUCUCCCCAUCCCGGUCUCCAGAGACCCAUGGAAUUCUCGGGUGCCAA	2.04
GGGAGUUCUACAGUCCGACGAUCAUGCAUGUGUCUGUCUGAUCAGCAUCACUGCACACGGAGGUCUAGUGAGCCUCUUGCUAAGUGUCACACACACUCUUCCCAAAGACGUGAUGAGUUAAAGUUGUAUUCUGUGGAAUUCUCGGGUGCCAA	1.24

Set 3 — technique: RNA Bind-n-Seq; form: RNA; sample: in vitro; concentration: not given; relative to: input RNA pool; direction: higher = stronger binding
Target: RING finger protein unkempt homolog, zinc fingers 1-6, GST-SBP tag (UNK, Homo sapiens, UniProt Q9C0B0, residues 30-357)
Sequence of UniProt Q9C0B0 (30-357, looked up): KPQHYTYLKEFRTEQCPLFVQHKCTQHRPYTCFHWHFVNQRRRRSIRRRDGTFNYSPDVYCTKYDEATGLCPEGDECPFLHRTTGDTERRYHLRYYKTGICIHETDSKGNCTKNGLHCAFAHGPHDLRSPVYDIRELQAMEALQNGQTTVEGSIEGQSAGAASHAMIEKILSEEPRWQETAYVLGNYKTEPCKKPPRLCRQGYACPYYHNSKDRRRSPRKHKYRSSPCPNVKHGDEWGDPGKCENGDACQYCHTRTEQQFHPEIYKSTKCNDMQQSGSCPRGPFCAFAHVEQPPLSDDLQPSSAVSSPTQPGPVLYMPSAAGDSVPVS
Setting: RNA with constant flanks, human-mouse chimeric sites, ends assumed
Oligonucleotide	bound/input enrichment [ratio]
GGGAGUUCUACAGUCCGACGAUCGUCAACAGUUGUCUCAAUCCCAUUCUCUACGCCUUCCUGGAUGAGAACUUCAAGGCCUGCUUCCGCAAGUUCUGCUGUGCAUCUGCCCUGCGCCGGGACGUGCAGGUGUCUGACCGCGUGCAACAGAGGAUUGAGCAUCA	0.496
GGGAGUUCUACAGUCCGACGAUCUUGUGCAAUGAUGCUUGAGAUGGUUUUUGCAAAAGCAGAAAUCGCUGCAAGGUAAUCCUAAUAGAGAAAAGUGGUAUUUUAAACCUUUGAAAUAAAUGGAUGUAACUGUACCUUGGUACACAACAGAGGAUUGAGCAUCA	1.11
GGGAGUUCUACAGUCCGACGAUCUAAGUUAUUUUGUACAGCUUUGUAAAUUCUUAACAUUAAUUUGUAAACAUGUUUAUUUUGUUUGGGUAAUUUGGUUCAUUAAGUACAAAACCAAAUAAAUGAACAUCUUUUUCAGUAAUUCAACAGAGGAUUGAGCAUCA	0.24
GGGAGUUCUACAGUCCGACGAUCCGGAGCCCUCCUCUCCCACAGGCCCAAGAUGUGACCCACCAGUGCCUUUUGUCUUCCUGUCAGCUCUGUCAAUCACGCCUGUCCUCUCACGCCCACACCAAGUGCCCAAAGUGGGGAGGGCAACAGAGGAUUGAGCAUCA	0.435
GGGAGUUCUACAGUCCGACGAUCCGGAGCCCUCCUCUCCCACAGGCCCAAGAUAUAACCCACCAGUGCCUUCUGUCUGCUUGUCAGCUCUGUCAAUCACGCCUGUCCUCUCACGCCCACACUCCCCAGCCAAAGUGGGGAGGGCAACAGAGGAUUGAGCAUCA	0.456
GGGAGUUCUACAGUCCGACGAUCCGCUGGCGUUGAACUGUGGACUCUGAUGGCCUCCAUCUCUCAGGCACGUGUGCCUUCUCUUAGUUAUUGUUUUCGGGAUGUUAUGAAUCUCAGUACUGUGGUUUGAAAGCACCAGCUUUGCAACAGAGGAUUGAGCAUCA	3.45
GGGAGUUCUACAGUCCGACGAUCAUCAAGUACUUUGGGGACAUCAUUAGUGUGGGACAGAGACUGUUGCAAGGAGCUCGGAUCUUAGGGAUUCCAGUUAUCAUAACGGAACAAUACCCCAAAGGACUUGGGAGCACGGUUCAACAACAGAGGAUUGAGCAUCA	0.219
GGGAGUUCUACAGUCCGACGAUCGAGCGUCUUGCCCGCACUGGGAUCAUCGUGACCACUAGUGAGGCUGUCCUCCUACAGCUGGUAGCUGACAAAGACCAUCCAAAAUUCAAGGAAAUUCAGAACCUAAUUAAGGCGAGUGCCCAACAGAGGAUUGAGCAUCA	0.256
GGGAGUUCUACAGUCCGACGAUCAGAAAGCAAAACUUGGAACGAUUUAAGAAAGGAGACGUAAGAUUCUUGAUUUGCACAGAUGUAGCUGCUAGAGGGAUUGAUAUCCAUGGUGUUCCUUAUGUGAUCAAUGUCACUCUGCCUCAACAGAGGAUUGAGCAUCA	0.214
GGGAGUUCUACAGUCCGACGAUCUUUCUACUGCAGCAAACGAUGCUAAGAGUGAAGGAUCCUAAGAAGUCCCUGGAUUUUUAUACGAGGGUUCUUGGACUGACCCUCCUGCAGAAGCUUGACUUCCCUGCUAUGAAGUUUUCGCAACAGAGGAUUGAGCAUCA	0.185
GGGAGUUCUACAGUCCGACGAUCAGUUCCAAACCACCAUCAGAAAUGAAGAUGAGAUUACCCAGACGAGCCAAAACAGCUGCGCUACAGAAAAGUAAACUUUAACCUUGCGAGUUCCUUAAUGAAGAUACAAGUUAAGAGAGCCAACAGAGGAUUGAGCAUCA	0.227

Set 4 — technique: protein-binding microarray; form: double-stranded DNA, one strand shown; sample: in vitro; concentration: not given; direction: higher = stronger binding
Target: Protein C-ets-1 (ETS1, Homo sapiens, UniProt P14921, residues 1-441, full length assumed)
Setting: k-mer, scored over probes, only values ≥0.25
Target sequence (chain): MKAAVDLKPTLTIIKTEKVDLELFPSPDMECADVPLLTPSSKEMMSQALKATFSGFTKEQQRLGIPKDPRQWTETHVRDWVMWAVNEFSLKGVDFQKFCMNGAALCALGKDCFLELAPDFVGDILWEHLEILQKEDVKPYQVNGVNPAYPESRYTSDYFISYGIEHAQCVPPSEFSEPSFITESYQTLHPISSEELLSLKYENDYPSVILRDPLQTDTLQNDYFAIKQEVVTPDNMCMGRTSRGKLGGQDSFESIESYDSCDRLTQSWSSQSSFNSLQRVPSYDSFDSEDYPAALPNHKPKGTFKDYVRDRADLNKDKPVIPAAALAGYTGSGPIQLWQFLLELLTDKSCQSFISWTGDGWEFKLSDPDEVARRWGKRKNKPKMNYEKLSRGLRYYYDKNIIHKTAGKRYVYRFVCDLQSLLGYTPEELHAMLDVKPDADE
Oligonucleotide	E-score
TAAGCGGA	0.343
AAATCCGG	0.435
AGGGGAAA	0.29
CTGTTTCC	0.427
CCATCCGC	0.432
AACATCCT	0.449
ATTCCGGA	0.425
ATCCGCTG	0.369
CCGGCGCA	0.293
CCTTCCCC	0.304
TCCGCTCA	0.37
GGGGGAGA	0.253
CCGTTCCG	0.258
CTCCCGGA	0.388
AGGCCGGA	0.383
GGATATAA	0.322
GGAAGCCA	0.432
AGCGGAAA	0.472
CCTTCCGC	0.46
ACAGGAAC	0.354
AGGAAGGA	0.416
ATAGGATG	0.339

A few entries again (set 4):
Oligonucleotide	E-score
TAAGCGGA	0.343
AAATCCGG	0.435
AGGGGAAA	0.29
CTGTTTCC	0.427
CCATCCGC	0.432
AACATCCT	0.449
ATTCCGGA	0.425
